# Measurements of several laboratories.
# Each numbered part is a random draw from the data of one study; scales do not carry over between parts. Substitutions count along the parent as printed.

# Series 1 — method: DHFR PCA, deep sequencing; matrix: yeast; together with: (+)-ABA 1.4 µM; relative to: wild-type fitted maximum; reading: higher = stronger binding
# Target: ABI1, truncated, D143A, DHFR fusion (Arabidopsis thaliana)
# Notes: methotrexate growth selection, single substitutions
# Parent: PYL1, truncated, DHFR fusion (Arabidopsis thaliana); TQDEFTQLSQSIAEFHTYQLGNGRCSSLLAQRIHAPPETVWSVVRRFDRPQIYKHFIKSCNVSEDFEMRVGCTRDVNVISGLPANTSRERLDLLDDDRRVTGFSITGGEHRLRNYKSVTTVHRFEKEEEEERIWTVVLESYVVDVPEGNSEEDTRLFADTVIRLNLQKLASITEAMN
Change,relative binding score [%]
R46T,6
Y53H,20.3
L29Q,8.7
S87E,-1.38
N177S,65.9
V161G,-9.87
R111G,3.59
D92Y,7.55
T106P,-5.06
E89V,-0.0225
R45D,-2.9
T154D,-21.3
F66E,22.2
Y141P,-14.2
R90Y,0.143
V40W,3.75
T39M,60.9
D144S,-12.2
R74I,1.62
R163D,6.71
S104W,-4.96
T135V,3.52

# Series 2 — target: UBE2T UBC core domain (UniProt Q9NPD8); method: yeast two-hybrid; matrix: yeast; notes: mostly zero background; relative to: not given; reading: higher = stronger interaction
# B1: ZNF598 RING domain (UniProt Q86UK7); chain AAAPERGGGSCVLCCGDLEATALGRCDHPVCYRCSTKMRVLCEQRYCAVCREELRQVVFGK
# B2: TRIM69 RING domain (UniProt Q86WT6); chain VIQDITMELHCPLCNDWFRDPLMLSCGHNFCEACIQDFWRLQAKETFCPECKMLCQYNNCTF
# B3: MID1 RING domain (UniProt O15344); chain METLESELTCPICLELFEDPLLLPCAHSLCFNCAHRILVSHCATNESVESITAFQCPTCRHVITLSQRGL
# B4: TRIM63 RING domain (UniProt Q969Q1); chain PMENLEKQLICPICLEMFTKPVVILPCQHNLCRKCANDIFQAANPYWTSRGSSVSMSGGRFRCPTCRHEVIMDRHGV
# B5: PHF21A RING domain (UniProt Q96BD5); chain SPTSTDGDIHEDFCSVCRKSGQLLMCDTCSRVYHLDCLDPPLKTIPKGMWICPRCQDQMLKKEEAIPW
# B6: RC3H2 RING domain (UniProt Q9HBD1); chain QAAQWTEFLSCPICYNEFDENVHKPISLGCSHTVCKTCLNKLHRKACPFDQTAINTDIDVL
# B7: IRF2BPL RING domain (UniProt Q9H1B7); chain SPMANSGPLCCTICHERLEDTHFVQCPSVPSHKFCFPCSRESIKAQGATGEVYCPSGEKCPLVGSNVP
# Target sequence (chain): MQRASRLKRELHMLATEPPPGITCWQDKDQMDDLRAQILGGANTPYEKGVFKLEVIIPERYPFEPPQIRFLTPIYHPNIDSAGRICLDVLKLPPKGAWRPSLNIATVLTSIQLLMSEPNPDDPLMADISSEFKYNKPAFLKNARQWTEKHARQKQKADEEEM
Molecule,lacZ reporter activity
EDEVSDNSAECVVCLSDVRDTLILPCRHLCLCNTCADTLRYQANNCPICRLPFRALLQIR (RNF157 RING domain (UniProt Q96PX1)),0
B1 (ZNF598 RING domain),0
B2 (TRIM69 RING domain),0
QHHELTSLFECPVCFDYVLPPILQCQAGHLVCNQCRQKLSCCPTCRGALTPSIRNL (SIAH2 RING domain (UniProt O43255)),0
B3 (MID1 RING domain),0
DDENSDNSNECVVCLSDLRDTLILPCRHLCLCTSCADTLRYQANNCPICRLPFRALLQIR (MGRN1 RING domain (UniProt O60291)),0
PEELQAMDNVCIICREEMVTGAKRLPCNHIFHTSCLRSWFQRQQTCPTCRMDVLRASLPA (SYVN1 RING domain (UniProt Q86TM6)),0
B4 (TRIM63 RING domain),0
VTLSLTLPITCHICLGKVRQPVICINNHVFCSICIDLWLKNNSQCPACRVPITPENPCK (OBI1 RING domain (UniProt Q5W0B1)),0
B5 (PHF21A RING domain),0
B6 (RC3H2 RING domain),0
B7 (IRF2BPL RING domain),0
YWAMDSTFELCKICAESNKDVKIEPCGHLLCSCCLAAWQHSDSQTCPFCRCEIKGWEAVS (CBLC RING domain (UniProt Q9ULV8)),0

# Series 3 — target: CREB3, bZIP domain (human); method: DHFR protein complementation; matrix: yeast; relative to: wild-type JUN-FOS pair; reading: higher = stronger binding
# Notes: single substitutions, most at no-binding floor
# Parent: JUN, bZIP domain (human); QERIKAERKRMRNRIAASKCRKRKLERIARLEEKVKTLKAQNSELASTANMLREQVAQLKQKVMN; partner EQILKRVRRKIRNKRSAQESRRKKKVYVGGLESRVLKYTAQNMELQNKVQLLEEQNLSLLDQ
Change,binding fitness
N42Q,-1.44 natural log
E32V,-1.46 natural log
R53D,-1.56 natural log
L59R,-1.4 natural log
I28F,-1.37 natural log
V35C,-1.44 natural log
T48Q,-1.44 natural log
A46Q,-1.28 natural log
E44S,-1.42 natural log
T37L,-1.47 natural log
R30I,-1.46 natural log
L31V,-1.53 natural log
I28M,-1.51 natural log
Q55L,-1.3 natural log
R30Y,-1.42 natural log
A46P,-1.56 natural log

# Series 4 — target: CCNF, cyclin fold, Cln2 fusion (human); method: yeast growth competition, sequencing; matrix: yeast; notes: strong parent motif; relative to: not given; reading: higher = stronger binding
# Parent: SCAPER docking peptide (human); SNARRSLNFGGST
Change,normalised enrichment score
G10D,6.68
L7K,1.65
T13I,7.7
T13G,7.05
A3W,3.05
F9S,0.243
S1I,8.99
S6I,6.58
R4L,1.41
S1Y,8.39
S1E,7.29
G10I,5.4
A3M,3.11
S1Q,7.42
T13W,7.35
F9L,4.44
T13N,7.57
G10W,7.74
S12W,7.67
N2Q,6.49
T13A,7.35
A3T,7.29

# Series 5 — method: RNA Bind-n-Seq; form: RNA; matrix: in vitro; concentration: 365 nM; relative to: no-protein control; reading: higher = stronger binding
# Target: RNA binding protein fox-1 homolog 2, RRM domain, GST-SBP tag (RBFOX2, Homo sapiens, UniProt O43251-10, residues 100-194)
# Notes: natural RNA segment, single round, ends assumed
# Residues (chain): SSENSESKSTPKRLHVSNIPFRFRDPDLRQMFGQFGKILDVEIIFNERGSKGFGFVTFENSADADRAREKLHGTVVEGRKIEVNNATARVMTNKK
Oligonucleotide,RBNS enrichment (R)
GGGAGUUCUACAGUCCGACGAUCCUGGUACCAGGGAAGAGGGAGAAUUAAUUUAUUGUGCAAAUGCUGGUAUUUCUUACAUGAUUUUUUGUUUUCCUCUGUUGCUAGAUAAAUAGAAACUAAUAAUAGCUCUAUGGAAUUCUCGGGUGCCAA,0.58
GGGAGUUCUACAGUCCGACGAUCUGUGUUGCUUAAACUUCAAGAAUUACAAAUGUGGACCUGGCACAUGCUGUGGUUUAACAUUGACACUUAAAGCAUGUGGUCACUGGGAAGGAUUGUAAUGUCAGCAGGUGUGGAAUUCUCGGGUGCCAA,2.8
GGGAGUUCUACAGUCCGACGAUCUGUUUUUAGUUUUAUGUACUCAUUUCCCUUUGUUUUCCUCAAACAGCAUGAUUUUUUUGCACAUGUAGAAAUUUUUUAAAAGAAAGAAAUUAGUACAUCAUUUUCUCUGGUGGAAUUCUCGGGUGCCAA,1.91
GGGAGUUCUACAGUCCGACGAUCCAGGCCUCAGGAGUGGUCAGGACCACCAAGCCCCUCCUCUCCCCCUCCACACCUCUAGACCUGGGGCCUCCGGAACCCCCAGCAGGCUGGGCUUAUACUAGCUCCUGACUUGGAAUUCUCGGGUGCCAA,0.4
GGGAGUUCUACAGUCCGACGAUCCUUCUCAAACAAAAAGAAAAGAAAAACGAAUGAUUCAUCUGCUUUAAUCAGUGUGAUUAAUGCAGCACCCAUUGCCCCGGGAACCGUUUCUGCUGUACUAUCUGGAUACUUGGAAUUCUCGGGUGCCAA,0.934
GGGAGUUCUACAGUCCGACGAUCAGAUCCCAGAGGGAUAGAGGAGACAGUGAUCUGGGCUCUGUUUAGGAAUGGACUUUCCCCUAGGUAUCCAGGGAACCCAUUUUAGAAUUCGGGGGACCUGGCUUUGAGCUUGGAAUUCUCGGGUGCCAA,0.979
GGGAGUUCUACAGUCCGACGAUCUUCAUACCUCAAAUUGAUUCAUACCUCAGUUUAAUUCAGAGAGGUCAGUUAAGUGACGGAUUCUGUUGUGGUUUGAAUGCAGUACCAGUGUUCUCUUCGAGCAAAGUAGAUGGAAUUCUCGGGUGCCAA,0.326
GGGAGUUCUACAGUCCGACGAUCAUAUGUAAUUUGUAUUGUUGUAUAGUUUUAUUGAUUACACUGAUUUAUUCUACCCUAUUUUAUAAUGCAGGACUUUUGUAAUGUUGUUUAAAUGAGGAAAAAUUUCUGUCUGGAAUUCUCGGGUGCCAA,0.343
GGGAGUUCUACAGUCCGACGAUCAAUCCUCAGAAGCCUUACAAAAAUUGAGAUGUACCAUUUCUACCCUUUGAGAAAAAAGAAAUAGAAACUUACUUGAUGCAGAAUGGAUAUUUAUAUUUCUGCUUGCACCAUGGAAUUCUCGGGUGCCAA,0.661
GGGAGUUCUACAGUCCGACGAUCUUUUAGUAGAGACGGGGUUUCACCAUGUUAGCCAGGAUGGUCUCGAUCUCCUGACCUCGUGAUCCGCCCGCCUCGGCCUCCCAAAGUGCUGGGAUUACAGGCGUGAGCCAUGGAAUUCUCGGGUGCCAA,0.225
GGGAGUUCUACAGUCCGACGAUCUGCCUGCAUGGGAAGAGGUGGACAUCUGCAUCUUCCAUUGGUGGUCAAGGAUGGGUGUGGGAGAACCACACCUAGUGCAAGCCUGGUACUCAGUAAAUAUUUGUUGAAAUUGGAAUUCUCGGGUGCCAA,6.37
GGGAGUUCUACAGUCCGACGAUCUCUCCCCGCUACUUUGGCAUUGAGGGUUCCCAGACCUUGGGGUUUGCCUACACUUUCUAUGAAUAACAAGUCAUUUCUGGUUUACACUGUCUUUUUAGAGGAAAAGGACUUGGAAUUCUCGGGUGCCAA,0.446

# Series 6 — method: protein binding microarray; form: double-stranded DNA, one strand shown; matrix: in vitro; concentration: not given; relative to: not given; reading: higher = stronger binding
# Target: Histone acetyltransferase KAT6A, winged helix 1, GST fusion (KAT6A, Homo sapiens, UniProt Q92794, residues 1-85)
# Notes: 8-mer, flanks averaged, mean of 2 arrays, mostly near background
# Target sequence (chain): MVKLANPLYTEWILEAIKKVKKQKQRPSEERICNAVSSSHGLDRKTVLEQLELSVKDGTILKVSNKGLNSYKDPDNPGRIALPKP
Oligonucleotide,E-score
ACTACAAA,-0.152
ACATGACT,-0.146
GAAATTTA,-0.207
AAATTAAT,-0.115
GCTCTGTA,-0.0521
CCTGTAGC,-0.0683
GTTCGATA,-0.0154
GAGTTTCA,-0.156
ATGACCGC,0.328
TCTCTACA,-0.29
GGCTATTA,0.129
ACACGGCG,0.422
TGGTCTAA,-0.167
AGCCGGAC,0.238
GGTAGATA,-0.0747
GATAACAA,-0.137
ATTTGACG,0.148
GAGCTAGC,-0.00195
ACATTAGT,-0.117
AGCTATGA,-0.185
CGACATGC,0.00728
GAGCCGCA,0.268
GCATATTA,0.0506
GTGCCTAA,-0.147
ATAGCGAT,-0.0439

# For quick reference, copied from above (series 2):
Molecule,lacZ reporter activity
B2 (TRIM69 RING domain),0
QHHELTSLFECPVCFDYVLPPILQCQAGHLVCNQCRQKLSCCPTCRGALTPSIRNL (SIAH2 RING domain (UniProt O43255)),0
B3 (MID1 RING domain),0
DDENSDNSNECVVCLSDLRDTLILPCRHLCLCTSCADTLRYQANNCPICRLPFRALLQIR (MGRN1 RING domain (UniProt O60291)),0
PEELQAMDNVCIICREEMVTGAKRLPCNHIFHTSCLRSWFQRQQTCPTCRMDVLRASLPA (SYVN1 RING domain (UniProt Q86TM6)),0
B4 (TRIM63 RING domain),0
VTLSLTLPITCHICLGKVRQPVICINNHVFCSICIDLWLKNNSQCPACRVPITPENPCK (OBI1 RING domain (UniProt Q5W0B1)),0
B5 (PHF21A RING domain),0
B6 (RC3H2 RING domain),0
B7 (IRF2BPL RING domain),0
YWAMDSTFELCKICAESNKDVKIEPCGHLLCSCCLAAWQHSDSQTCPFCRCEIKGWEAVS (CBLC RING domain (UniProt Q9ULV8)),0
